Assay results of several laboratories.
Lines come from different studies, so protocols differ.

With `O=c1[nH]c(Cc2ccccn2)nc2c1cnn2C1CCOCC1` the Tmax was 0.86 h (healthy male human, plasma; oral, 100 mg, median).
With `CCCCCOc1ccc(-c2cc(-c3ccc(C(=O)N[C@H]4C[C@@H](O)[C@@H](O)NC(=O)[C@@H]5[C@@H](O)[C@@H](C)CN5C(=O)[C@H]([C@H](O)CC(N)=O)NC(=O)[C@H]([C@H](O)[C@@H](O)c5ccc(O)c(OS(=O)(=O)O)c5)NC(=O)[C@@H]5C[C@@H](O)CN5C(=O)[C@H]([C@@H](C)O)NC4=O)cc3)no2)cc1` the Tmax was 2.1 h (human children aged 6-11 years, plasma; intravenous, 4.5 mg/kg once daily, day 7, mean).
For `C[C@@H](c1nc(-c2ccc(C#N)cc2)cs1)[C@](O)(Cn1cncn1)c1cc(F)ccc1F`, the Tmax was 4.6 h (human, both sexes, plasma; oral, 200 mg QD, day 12, median, together with: midazolam 3 mg).
With `Cc1ncc2n1-c1ccc(Cl)cc1C(c1ccccc1F)=NC2` the Tmax was 0.5 h (human CYP3A5*3/*7, serum; oral, together with: ketoconazole 400 mg).
The Tmax of `CC(C)C[C@H](NC(=O)CNC(=O)c1cc(Cl)ccc1Cl)B(O)O` is reported as 1.49 h (human, plasma; oral, 4 mg, day 1, alone).
For `CC[C@@]1(O)C(=O)OCc2c1cc1n(c2=O)Cc2cc3c(CN(C)C)c(O)ccc3nc2-1`, the Tmax was 2 h (human patients; oral, 2.5 mg daily, 5 days, cycle 2 day 5, median, together with: pazopanib 800 mg daily).
The Tmax of `O[C@H]1CCCN[C@@H]1CCCn1cnc2c(Cl)c(Cl)ccc21` is reported as 3.5 h (healthy human volunteers, plasma; oral, 25 mg, day 1, median).
For `CCC(=O)C(C[C@H](C)N(C)C)(c1ccccc1)c1ccccc1`, the Tmax was 3 h (human, plasma; oral, 11 mg).
The Tmax of `COc1ccc(C[C@@H]2NC(=O)[C@H]([C@@H](C)O)NC(=O)[C@@H]3[C@@H]4CCN3C(=O)[C@@H]3Cc5cn(c6ccc(F)cc56)CCCCCCN(Cc5ccc(cc5)CCNC(=O)[C@]5(C)CCCN5C2=O)C(=O)CCC(=O)N[C@@H](C)C(=O)N[C@H](CNC(=O)CCCCC[N+](C)(C)C)C(=O)N[C@@H](Cc2cccc(c2)CNC(=O)CO4)C(=O)N3)cc1` is reported as 1.5 h (fasted healthy humans, plasma; oral, 300 mg single dose, with 1800 mg Labrasol, median).

Repeated from above:
The Tmax of `COc1ccc(C[C@@H]2NC(=O)[C@H]([C@@H](C)O)NC(=O)[C@@H]3[C@@H]4CCN3C(=O)[C@@H]3Cc5cn(c6ccc(F)cc56)CCCCCCN(Cc5ccc(cc5)CCNC(=O)[C@]5(C)CCCN5C2=O)C(=O)CCC(=O)N[C@@H](C)C(=O)N[C@H](CNC(=O)CCCCC[N+](C)(C)C)C(=O)N[C@@H](Cc2cccc(c2)CNC(=O)CO4)C(=O)N3)cc1` is reported as 1.5 h (fasted healthy humans, plasma; oral, 300 mg single dose, with 1800 mg Labrasol, median).
